Measurements pooled from the literature.
Numbered parts are unrelated; each lists some results of a single study. Positions count from the first letter of the parent shown.
Sequence of UniProt Q94JM3 (whole entry, looked up): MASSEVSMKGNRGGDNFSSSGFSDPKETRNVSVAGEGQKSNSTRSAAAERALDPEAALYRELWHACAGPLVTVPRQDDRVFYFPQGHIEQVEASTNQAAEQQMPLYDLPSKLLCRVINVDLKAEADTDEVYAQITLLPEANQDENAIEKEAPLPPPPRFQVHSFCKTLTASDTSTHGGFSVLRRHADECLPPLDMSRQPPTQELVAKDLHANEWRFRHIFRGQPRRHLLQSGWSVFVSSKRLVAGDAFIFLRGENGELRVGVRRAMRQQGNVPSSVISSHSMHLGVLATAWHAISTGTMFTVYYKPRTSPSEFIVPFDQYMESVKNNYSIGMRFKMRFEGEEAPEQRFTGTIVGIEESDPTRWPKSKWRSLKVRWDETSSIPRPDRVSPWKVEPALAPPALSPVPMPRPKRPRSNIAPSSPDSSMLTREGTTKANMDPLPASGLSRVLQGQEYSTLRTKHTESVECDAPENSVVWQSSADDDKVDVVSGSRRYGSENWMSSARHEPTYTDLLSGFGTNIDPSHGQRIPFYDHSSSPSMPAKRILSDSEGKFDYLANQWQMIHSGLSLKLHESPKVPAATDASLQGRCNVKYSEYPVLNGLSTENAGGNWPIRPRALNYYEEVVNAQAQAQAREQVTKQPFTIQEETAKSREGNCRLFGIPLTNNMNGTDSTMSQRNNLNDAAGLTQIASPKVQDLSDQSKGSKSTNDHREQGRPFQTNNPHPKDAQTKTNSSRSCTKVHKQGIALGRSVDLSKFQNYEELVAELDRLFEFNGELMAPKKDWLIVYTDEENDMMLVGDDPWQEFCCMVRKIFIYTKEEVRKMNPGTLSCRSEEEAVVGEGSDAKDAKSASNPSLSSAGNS
Sequence of UniProt O24408 (whole entry, looked up): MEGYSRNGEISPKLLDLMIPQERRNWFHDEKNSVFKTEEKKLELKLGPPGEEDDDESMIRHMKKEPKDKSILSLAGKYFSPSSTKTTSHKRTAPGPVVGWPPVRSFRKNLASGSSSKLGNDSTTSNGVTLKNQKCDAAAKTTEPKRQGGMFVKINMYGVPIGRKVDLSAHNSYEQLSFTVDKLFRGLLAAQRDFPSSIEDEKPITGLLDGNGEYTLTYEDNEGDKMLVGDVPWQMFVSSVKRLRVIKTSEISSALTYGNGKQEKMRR
Sequence of UniProt Q9M1R4 (whole entry, looked up): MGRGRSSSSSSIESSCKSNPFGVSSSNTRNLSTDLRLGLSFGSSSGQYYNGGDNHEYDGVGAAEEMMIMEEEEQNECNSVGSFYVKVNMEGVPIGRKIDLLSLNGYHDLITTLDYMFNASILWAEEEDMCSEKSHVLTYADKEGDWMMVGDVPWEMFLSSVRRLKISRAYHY

Block 1
Target: CCNA2, cyclin fold, Cln2 fusion (human)
Method: yeast growth competition, sequencing
Sample: yeast
Notes: strong parent motif
Relative to: not given
Direction: higher = stronger binding
Quantity: normalised enrichment score
Starting sequence: E2F1 docking peptide (human); PPVKRRLDLETDH
H13K: 5.06
H13I: 4.83
D12H: 3.91
T11G: 4.44
D12N: 3.81
L7V: 0.236
H13G: 4.77
T11V: 4.53
R5P: -1.8
T11R: 3.54
D12Y: 5.93
P1R: 4.86
R6I: 0.619
K4G: 1.04
P2D: 2.86
V3E: 0.233
T11S: 4.8
R5C: 0.393
K4M: 2.26
D12F: 5.15
D8T: 4.26
E10C: 4.14
D12T: 3.91
T11M: 4.2
R5V: -0.162

Block 2
Target: RNA binding protein fox-1 homolog 2, RRM domain, GST-SBP tag (RBFOX2, Homo sapiens, UniProt O43251-10, residues 100-194)
Method: RNA Bind-n-Seq
Molecule type: RNA
Sample: in vitro
Concentration: 365 nM
Notes: natural RNA segment, single round, ends assumed
Relative to: no-protein control
Direction: higher = stronger binding
Quantity: RBNS enrichment (R)
Construct (chain): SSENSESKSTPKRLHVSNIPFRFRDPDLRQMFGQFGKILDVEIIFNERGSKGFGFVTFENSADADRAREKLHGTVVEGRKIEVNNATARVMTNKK
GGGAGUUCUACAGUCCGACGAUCGGGGGUAGAGGCUUCUUAGAUUCUCCCAGCAUCCGCCUUUCCCUUUAGCCAGUCUGCUGUCCUGAAACCCAGAAGUGAUGGAGAGAAACCAACAAGAGAUCUCGAACCCUUGGAAUUCUCGGGUGCCAA: 0.736
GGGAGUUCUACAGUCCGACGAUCAUGUUUUUAAAAUUACCUCUUCGAGCCUGAAUACAAAGAAUAAAAGAAUAAAAGAAUUCUUUUAAUUUCAGGGAAGAUCAGAAAAGAAAGCCUAAAGCCCUUUAGCGUUGUGGAAUUCUCGGGUGCCAA: 0.491
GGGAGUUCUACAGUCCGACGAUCACUCAGCUCCCCUCCCCUGAAUUAUAUUUGUAUGCUGGGUGGCCUGGCUGAUGCUCAGAGGCCUCCUUAGAGAGGACACUCACUCCCCUCCCACCAGCUGGAUGCCCAUUUGGAAUUCUCGGGUGCCAA: 2.67
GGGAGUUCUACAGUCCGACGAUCAUUAUUUUAUCAUGCGGUUGCUGGGGAAUACAACUAACACUUUUGAAGCUACUAAUUUUAUGUCAAGCUUUAAAGUCCAUAAUUGUUAUCUUCAGAAAUAUUAUUUGACCUGGAAUUCUCGGGUGCCAA: 0.44
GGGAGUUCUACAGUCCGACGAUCAUUGGAGAAUGCUUGGUUUGCAUGUCUUGUGAUUUCUCCUGUAUUGUUCCUAGCUAAUUUCAUGGCUGUGGGAAGUUAGCAACACUAGGUUUAUGACUCUGAAGACCAGAUGGAAUUCUCGGGUGCCAA: 8.78
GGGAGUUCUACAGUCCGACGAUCCCUUGGCUCUAACUCUGCUGCUCUGGUCUCCCAGAGCCUCUAGGGGCAGGGGAGUGCUCCACAAGGUGGUUUGCUGGCUUCAGAGCCCUAGAAGCACAAGACAGUGGAGCUGGAAUUCUCGGGUGCCAA: 0.206
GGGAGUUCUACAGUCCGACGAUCAGCUGAACUAGGUUGCUCUUUUUUGGCAGGGAGUGGGGAUGAGAUUUGACACCAAUAUGGGCAAAAUUAGAUAACCUUUUGGUUAAUAUAAAUGAUUUUGAUUUGGAGGCUGGAAUUCUCGGGUGCCAA: 0.62
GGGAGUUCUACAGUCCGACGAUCUGGGUCAUAACUGGGACUCCAUCUUUGCUGGGGAAAGUCUCCCACCUAGGGAAUGGUUACCACUCCAUGUAAAGAAAACUCCCUCAUGCGUCCUCUGGGACCUUCUUAGAUGGAAUUCUCGGGUGCCAA: 0.362

Block 3
Target: ABI1, truncated, D143A, DHFR fusion (Arabidopsis thaliana)
Method: DHFR PCA, deep sequencing
Sample: yeast
Notes: methotrexate growth selection, single substitutions
Together with: (+)-ABA 2500 µM
Relative to: wild-type fitted maximum
Direction: higher = stronger binding
Quantity: relative binding score
Starting sequence: PYL1, truncated, DHFR fusion (Arabidopsis thaliana); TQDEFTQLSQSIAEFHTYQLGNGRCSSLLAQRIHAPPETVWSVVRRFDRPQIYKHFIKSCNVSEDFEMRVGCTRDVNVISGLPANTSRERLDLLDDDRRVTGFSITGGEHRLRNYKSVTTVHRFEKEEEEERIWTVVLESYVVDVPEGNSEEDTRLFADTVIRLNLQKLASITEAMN; partner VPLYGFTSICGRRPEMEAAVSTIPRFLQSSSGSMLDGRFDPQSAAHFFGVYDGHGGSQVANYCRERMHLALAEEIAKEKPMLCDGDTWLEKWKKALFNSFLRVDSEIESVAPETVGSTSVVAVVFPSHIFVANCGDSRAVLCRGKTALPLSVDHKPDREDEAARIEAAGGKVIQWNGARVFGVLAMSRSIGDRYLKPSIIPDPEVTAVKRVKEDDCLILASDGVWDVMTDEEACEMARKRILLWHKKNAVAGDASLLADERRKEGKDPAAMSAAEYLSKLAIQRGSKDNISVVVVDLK
V44P: -17.5%
H34Q: 91.3%
T101S: 98.9%
E14N: 86.7%
H110G: 89.5%
E125T: 97.5%
L29D: 40.6%
N77I: 93.4%
G23P: 81.9%
S27V: 52.2%
A170L: 86.3%
I33L: 80.2%
T135K: 9.26%
I133H: 110%
T6D: 105%
Q19A: 101%
R155M: 94.1%
N22Y: 94.8%

Block 4
Sequence: B1 (IAA9)
Method: two-hybrid
Direction: higher = firmer interaction
Quantity: positive tests
B1: IAA9 (Arabidopsis thaliana, UniProt Q38827); chain MSPEEELQSNVSVASSSPTSNCISRNTLGGLKEHNYLGLSDCSSVGSSTLSPLAEDDKATISLKATELTLGLPGSQSPARDTELNLLSPAKLDEKPFFPLLPSKDEICSSSQKNNASGNKRGFSDTMDQFAEAKSSVYTEKNWMFPEAAATQSVTKKDVPQNIPKGQSSTTNNSSSPPAAKAQIVGWPPVRSYRKNTLATTCKNSDEVDGRPGSGALFVKVSMDGAPYLRKVDLRSYTNYGELSSALEKMFTTFTLGQCGSNGAAGKDMLSETKLKDLLNGKDYVLTYEDKDGDWMLVGDVPWEMFIDVCKKLKIMKGCDAIGLAAAPRAMEKSKMRA
IAA30 (Arabidopsis thaliana, UniProt Q9M1R4); weak activation fusion; relative to: out of 0 tests: 0
ARF2 727-859 (Arabidopsis thaliana, UniProt Q94JM3); relative to: out of 4 tests: 1
IAA18 (Arabidopsis thaliana, UniProt O24408); relative to: out of 2 tests: 2

Repeated from above (block 1):
T11V: 4.53
R5P: -1.8
T11R: 3.54
D12Y: 5.93
P1R: 4.86
